Experimental data of several laboratories.
Numbers after ± are the reported error.

SMILES | test | system | conditions | tissue uptake
CN[C@](C)(C[18F])C(=O)O |  | SCID mouse DU-145 xenograft, spleen | 15 min, post injection | 11 ± 3.3 %ID/g
CCCC[C@H](NC(=O)CN1CCC(NC(=O)CN2CCC(NC(=O)CN3CCN(CC(=O)O)CCN(CC(=O)O)CCN(CC(=O)O)CC3)CC2)CC1)C(=O)N[C@H]1CC(=O)NCCCC[C@@H](C(N)=O)NC(=O)[C@H](Cc2c[nH]c3ccccc23)NC(=O)[C@H](CCCNC(=N)N)NC(=O)[C@@H](Cc2ccccc2)NC(=O)[C@H](Cc2c[nH]cn2)NC1=O [gallium-68 labelled] |  | C57BL/6J mice male B16-F10 tumour, intestine | 1 h post injection, unblocked | 0.7 ± 0.5 %ID/g
O=C(O)CC[C@H](NC(=O)O[C@@H](CCCCNC(=O)c1ccc([18F])cc1)C(=O)O)C(=O)O |  | mouse, PC-3 PIP/flu xenografts, muscle | 90 min | 0.06 ± 0.01 %ID/g
N=C(N)NCc1ccc(C(=O)NCCCC[C@H](NC(=O)CCCCCCC(=O)NCCCC[C@H](NC(=O)N[C@@H](CCC(=O)O)C(=O)O)C(=O)O)C(=O)O)cc1[211At] |  | SCID mouse, PC-3 xenografts, blood | 2 h | 0.35 ± 0.03 %ID/g
CC(C)C[C@@H](NC(=O)[C@@H](CCCNC(=N)N)NC(=O)[C@@H](Cc1c[nH]cn1)NC(=O)[C@@H](Cc1c[nH]c2ccccc12)NC(=O)[C@@H](Cc1c[nH]cn1)NC(=O)[C@@H](Cc1ccccc1)NC(=O)[C@H](NC(=O)[C@@H](Cc1ccc(O)cc1)NC(=O)CNC(=O)CNC(=O)CCOCCOCCOCCNC(=O)CN1CCN(CC(=O)O)CCN(CC(=O)O)CC1)[C@H](C)O)C(=O)N[C@H](CC(N)=O)C(=O)N1CCC[C@@H]1C(=O)O [gallium-68 labelled] | γ-counting | male C57BL/6 mice, tumor | intravenous, 1.85 MBq, 60 min | 5 ± 1.24 %ID/g
COc1cc2ncnc(Oc3cccc(N[11C](=O)Nc4cc(C(C)(C)C(F)(F)F)on4)c3)c2cc1OC |  | Balb/c nude mouse, female, A375 melanoma xenograft, large intestine | 6.6 MBq, 60 min | 3.44 ± 0.22 %ID/g
C[S]1CC[S]2CC[P](CO)(CO)[99Tc+]12.[C-]#[O+].[C-]#[O+].[C-]#[O+] |  | CF-1 mice, female, urine | intravenous, 24 h | 68.1 %ID
COc1cc2ccnc(Cc3ccc(O[11CH3])c(OC)c3)c2cc1OC |  | Sprague-Dawley rats, blood | intravenous, 0.08333 h | 0.246 ± 0.015 %ID/g
N=C(N)NCc1ccc(C(=O)NCCCC[C@H](NC(=O)N[C@@H](CCC(=O)O)C(=O)O)C(=O)O)cc1[131I] |  | SCID mouse, PC-3 xenografts, bone | 2 h | 0.31 ± 0.04 %ID/g
O=C(c1ccc(F)cc1)C1CCN(C2Cc3c(cccc3OCC[18F])CC2O)CC1 (single isomer, unassigned; (-)) |  | Sprague-Dawley rat, male, pancreas | intravenous, dose not given, 60 min | 1.32 ± 0.346 %ID/g
CCNc1cc2[o+]c3cc(NCC)c(C)cc3c(-c3ccccc3C(=O)OCCOCC[18F])c2cc1C |  | rat, mandibular gland | 60 min | 2.01 ± 0.31 %ID/g
N=C(N)NCc1ccc(C(=O)NCCCC[C@H](NC(=O)CCCCCCC(=O)NCCCC[C@H](NC(=O)N[C@@H](CCC(=O)O)C(=O)O)C(=O)O)C(=O)O)cc1[131I] |  | SCID mouse, PC-3 xenografts, stomach | 1 h | 0.73 ± 0.26 %ID/g
C=Cc1cc(O)cc2nc(-c3ccc(O)c([76Br])c3)oc12 |  | female C57BL/6 mouse, lung | 3 h, high dose, with: estradiol 20 µg blocking | 0.15 ± 0.05 %ID/g

Some of these lines once more:
SMILES | test | system | conditions | tissue uptake
C[S]1CC[S]2CC[P](CO)(CO)[99Tc+]12.[C-]#[O+].[C-]#[O+].[C-]#[O+] |  | CF-1 mice, female, urine | intravenous, 24 h | 68.1 %ID
COc1cc2ccnc(Cc3ccc(O[11CH3])c(OC)c3)c2cc1OC |  | Sprague-Dawley rats, blood | intravenous, 0.08333 h | 0.246 ± 0.015 %ID/g
